Experimental data of several laboratories.
Parts stem from different laboratories: compare values within a part only.

Sample 1
Target: Fragile X messenger ribonucleoprotein 1, C-terminal low-complexity region (Fmr1, Mus musculus, UniProt P35922)
Technique: RNA Bind-n-Seq
Form: RNA
Sample: in vitro
Concentration: 200 nM
Setting: whole 134-nt RNA, ends assumed
Together with: 150 mM LiCl
Relative to: input library
Direction: higher = stronger binding
Measurement: log2 enrichment
All molecules: 7-deaza-guanosine replaces G
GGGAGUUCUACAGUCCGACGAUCCAAGUCCUGUGCUACACAUCGUAUGUACCGAAUCGGGGCCCCGGCCCCGGCCCCGGAAAGUAUUAUGUUACGCCGUUCGGAUCUGCACUUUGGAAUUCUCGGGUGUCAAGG: -2.45
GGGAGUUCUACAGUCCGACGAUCAAGUCCUGUGCUACACAUCGUAUGUACCGAAUCGGGGCCCGGGGCCCGGGGCCCGGAAAGUAUUAUGUUACGCCGUUCGGAUCUGCACUUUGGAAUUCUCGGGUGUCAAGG: -2.26
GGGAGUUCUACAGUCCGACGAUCAAGUCCUGUGCUACACAUCGUAUGUACCGAAUCGGGGAAAAGGAAAAGGAAAAGGGGAAAGUAUUAUGUUACGCCGUUCGGAUCUGCACUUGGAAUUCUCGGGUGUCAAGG: 0.222
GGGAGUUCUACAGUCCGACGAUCCAGAGACAACACGCACCCACACAGACACAGAGGGAAGGGGUUGGGAUGGGGACAGGGUGCACAGCAGGGCGGGGUAGGACCCCAGCCCCUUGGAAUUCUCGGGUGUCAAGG: 0.936
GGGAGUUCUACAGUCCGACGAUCUAACUUUAGAGGAGGAUCUGAUGGAUAUGGCAGUGGACGUGGAUUUGGGGAUGGCUAUAAUGGGUAUGUAGGAGGACCUGGAGGUGGCAAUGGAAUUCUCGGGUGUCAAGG: 0.248
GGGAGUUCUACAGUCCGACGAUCUGGACGAUGAAGAGGAAACAAUUGAAGAGGAGGAAGCAAAUGAAGGCGUUGUGGACCACCAAACAGAACUUUCUAAUUUAGCCAAGGAAGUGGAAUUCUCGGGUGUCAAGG: 0.347
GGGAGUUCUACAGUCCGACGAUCUGGGAGGUGGAUUUUGUUUAUUUUUUUAGCUCAUUUCCAGGGGUGGGAAUUUUUUUUUAAUAUGUGUCAUCAAUAAAGUUGUUUUUGAAAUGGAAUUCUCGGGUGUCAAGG: 0.631

Sample 2
Target: Sal-like protein 4, full length isoform B (SALL4, Homo sapiens, UniProt Q9UJQ4-2, residues 1-616)
Technique: universal PBM
Form: double-stranded DNA, one strand shown
Sample: in vitro
Concentration: not given
Setting: 8-mer, flanks averaged, mean of replicates
Direction: higher = stronger binding
Measurement: E-score
CCATTATC: 0.0997
CTAACATA: 0.239
GAGGTGCC: -0.241
AGTTTTTG: 0.264
TTAAGTAA: 0.247
AGTCCAGG: -0.243
TCCCTTAA: 0.116
CATCTACA: 0.158
AGTCGAAA: -0.0811

Sample 3
Target: RING finger protein unkempt homolog, zinc fingers 1-6, GST-SBP tag (UNK, Homo sapiens, UniProt Q9C0B0, residues 30-357)
Technique: RNA Bind-n-Seq
Form: RNA
Sample: in vitro
Concentration: not given
Setting: RNA with constant flanks, human-mouse chimeric sites, ends assumed
Relative to: input RNA pool
Direction: higher = stronger binding
Measurement: bound/input enrichment
Construct (chain): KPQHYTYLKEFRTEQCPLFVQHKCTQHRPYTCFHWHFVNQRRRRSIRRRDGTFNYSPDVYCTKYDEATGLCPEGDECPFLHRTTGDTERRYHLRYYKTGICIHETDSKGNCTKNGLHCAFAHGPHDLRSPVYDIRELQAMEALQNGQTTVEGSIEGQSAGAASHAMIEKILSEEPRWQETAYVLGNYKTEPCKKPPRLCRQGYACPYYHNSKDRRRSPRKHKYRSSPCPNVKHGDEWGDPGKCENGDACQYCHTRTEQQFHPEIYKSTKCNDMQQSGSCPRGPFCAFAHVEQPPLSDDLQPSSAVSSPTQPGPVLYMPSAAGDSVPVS
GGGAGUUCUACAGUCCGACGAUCGGAUUCCGCUUCCGGUUCCGUUGGGCUCGGUUCUCUCAGUGCUACGUUGUCUCUACGCUCUCAAUCCGCCAUCCAACAAACAUGGAUCAGGUAAUGCAGUUUGUGGAGCCCAGCCGGCAGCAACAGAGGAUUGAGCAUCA: 0.075 ratio
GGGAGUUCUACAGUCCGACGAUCAAAGAACUUGCUGAUGAUGAAGAUGAGGACAGUGAUGAUGAUGUUGAACCCAUUUCUGAAUUUCGAUUUGUGCCCAGUGAUAAGUCAGCAUUGGAGGCGAUGUUCACAGCAAUGUGUGAGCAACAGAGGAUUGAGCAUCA: 0.326 ratio
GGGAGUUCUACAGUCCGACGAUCAACAGAUUGUCUUUAAGCAUUCCAAGCGAGAAUGCUGGGGUGAUCAUUGUUGCCCAUGUGCCUUCUGUAAUAGAUGGAAUGCUGUUCCAUGUUACAUCUUUCCUUCACUCCAGAAUUGUUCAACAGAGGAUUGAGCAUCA: 0.122 ratio
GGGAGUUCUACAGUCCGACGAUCUUGUGCAAUGAUGCUUGAGAUGGUUUUUGCAAAAGCAGAAAUCGCUGCAAGGUCAUUACAAUAGAUAAAAGUGGUAUUUUAAACCUUUGAAAUAAAUGGAUGUAACUGUACCUUGGUACACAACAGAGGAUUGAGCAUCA: 0.414 ratio
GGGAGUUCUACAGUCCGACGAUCGGAAGUACAAUGAUGGAGAUUGAUGGUGACAAAGGCAAGCAGGGCGGGCCCACCUACUACAUAGACACUAAUGCUCUGCGUGUUCCGAGGGAGAACAUGGAGGCCAUCUCACCACUCAAGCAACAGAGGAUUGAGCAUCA: 0.318 ratio
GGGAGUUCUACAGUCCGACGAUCAUUGUUGAAGCUAACCCACUUUUAGAAGCCUUUGGAAAUGCAAAGACUGUUCGCAACAAUAAUAGCAGUCGAUUUGGAAAAUUUGUAGAAAUUCAUUUCAAUGAAAAGAGUUCGGUUGUUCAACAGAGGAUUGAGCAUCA: 0.589 ratio
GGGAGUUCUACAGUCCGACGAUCAUAAAAGCUAUGUUGAGUGGUCCAGGUCAGUUUGCUGAGAAUGAAACCAACGAGGUCAAUUUUAGAGAGAUACCUUCACAUGUGCUAUCAAAAGUGUGCAUGUAUUUUACCUACAAGGUCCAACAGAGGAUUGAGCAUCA: 0.18 ratio
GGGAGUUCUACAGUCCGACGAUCGUUGCCAGCUUCCGGUUCCGUUGGGCUAGCAAGCUCCCUGAGCUACGUGUCUCUACGCUCUCAAUCCGCCAUCCAACAAACAUGGAUCAGGUAAUGCUGCAGUUUGUGCCCAGCCGGCAGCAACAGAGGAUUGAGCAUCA: 0.168 ratio
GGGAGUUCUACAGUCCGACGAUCGUACUGCAGCAGCAGGGAAAACUGCAGGAAGCUCUGAUGCAUUAUAAAGAAGCCAUACGAAUCAGUCCUACCUUUGCUGAUGCUUAUUCUAAUAUGGGAAACACUCUAAAGGAGAUGCAGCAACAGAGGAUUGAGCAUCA: 0.218 ratio
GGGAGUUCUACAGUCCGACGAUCAACAGAUUUCUCAAGCACAUUCCAAGCGAGAAUGCUGGGGUGAUCAUUGUUGCCCAUGUGCCUUCUGACUGAGCUUUUAAUUAAUUGCAUGUUACAUCUUUCCUUCACUCCAGAAUUGUUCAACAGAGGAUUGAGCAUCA: 0.218 ratio
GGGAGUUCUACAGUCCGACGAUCAGCACAACCCCAGCAAAGCUAAGAAAUCCUUGUACAAGUGAACAGAACUGCACCAGCCCAUUUAGCUACAAAAAUGUGCUUAGUCUUACUGACAGAGGAGAAGUAUUCAAUGAACUUGUUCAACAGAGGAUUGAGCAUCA: 0.757 ratio

Further values, each from its own experiment
PhoQ, residues 284 288 289 292 302 303 SLGVVW — fold induction (PhoP, residues 12 14 15 18 19 HEGLL (Escherichia coli, UniProt P23836); Sort-seq, item: YFP reporter; E. coli; PhoQ-PhoP variant library, together with: 10 µM Mg2+; relative to: high Mg2+ state, higher = stronger signaling): 18.3

Excerpt of the above (sample 3):
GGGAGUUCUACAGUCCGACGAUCGGAAGUACAAUGAUGGAGAUUGAUGGUGACAAAGGCAAGCAGGGCGGGCCCACCUACUACAUAGACACUAAUGCUCUGCGUGUUCCGAGGGAGAACAUGGAGGCCAUCUCACCACUCAAGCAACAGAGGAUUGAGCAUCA: 0.318 ratio
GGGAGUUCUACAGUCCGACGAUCAUUGUUGAAGCUAACCCACUUUUAGAAGCCUUUGGAAAUGCAAAGACUGUUCGCAACAAUAAUAGCAGUCGAUUUGGAAAAUUUGUAGAAAUUCAUUUCAAUGAAAAGAGUUCGGUUGUUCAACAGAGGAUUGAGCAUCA: 0.589 ratio
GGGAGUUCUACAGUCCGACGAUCAUAAAAGCUAUGUUGAGUGGUCCAGGUCAGUUUGCUGAGAAUGAAACCAACGAGGUCAAUUUUAGAGAGAUACCUUCACAUGUGCUAUCAAAAGUGUGCAUGUAUUUUACCUACAAGGUCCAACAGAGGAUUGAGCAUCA: 0.18 ratio
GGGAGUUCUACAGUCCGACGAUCGUUGCCAGCUUCCGGUUCCGUUGGGCUAGCAAGCUCCCUGAGCUACGUGUCUCUACGCUCUCAAUCCGCCAUCCAACAAACAUGGAUCAGGUAAUGCUGCAGUUUGUGCCCAGCCGGCAGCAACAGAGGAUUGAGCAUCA: 0.168 ratio
